Measured values gathered from unrelated publications.
Every numbered part comes from another study and shows a few of its results, in no order.

Series 1 — technique: protein binding microarray; molecule type: double-stranded DNA, one strand shown; matrix: in vitro; tested at: not given; baseline: not given; direction: higher = stronger binding
Target: Histone acetyltransferase KAT6A, winged helix 2, GST fusion (KAT6A, Homo sapiens, UniProt Q92794, residues 85-181)
Setting: 8-mer, flanks averaged, mean of 2 arrays, mostly near background
Construct (chain): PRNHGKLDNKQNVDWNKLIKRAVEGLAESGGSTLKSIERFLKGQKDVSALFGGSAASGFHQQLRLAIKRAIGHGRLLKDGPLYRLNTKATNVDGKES
| Oligonucleotide | E-score |
| --- | --- |
| TCCAGGGA | -0.106 |
| CAGCCGAG | 0.108 |
| GATATTGC | -0.0795 |
| TACAGTCA | -0.152 |
| ATGCTAAT | 0.0108 |
| CCCCCCGG | 0.114 |
| CTTCTTAA | 0.0904 |
| ACATTAAT | 0.0309 |
| TAAGGGCA | -0.0192 |
| CTTTTAAA | 0.0443 |
| ACGAAGCC | 0.0303 |
| GTGACAAC | -0.0226 |
| AATGTTTC | -0.0413 |
| TAAATTGA | 0.112 |
| ATTGTCAG | 0.0699 |
| AAGGCAAG | -0.0833 |
| CAGCTCCA | -0.0105 |
| ATAACCGA | -0.0485 |
| AGCACCGG | 0.0459 |
| AAAAACTA | 0.0524 |
| CATAGTGG | -0.0425 |
| ACTGAAAG | 0.0844 |
| CCCAACAA | 0.0139 |
| AGTAGTAT | -0.0972 |
| TCGATAAA | -0.0426 |

Series 2 — technique: protein-binding microarray; molecule type: double-stranded DNA, one strand shown; matrix: in vitro; tested at: 0.8 µM; setting: whole 60-bp probe, no competitor; direction: higher = stronger binding
Target: Centromere-binding protein 1, full length, N-terminal tag (CBF1, Saccharomyces cerevisiae, UniProt P17106, residues 1-351)
UniProt P17106, sequence (whole entry, looked up): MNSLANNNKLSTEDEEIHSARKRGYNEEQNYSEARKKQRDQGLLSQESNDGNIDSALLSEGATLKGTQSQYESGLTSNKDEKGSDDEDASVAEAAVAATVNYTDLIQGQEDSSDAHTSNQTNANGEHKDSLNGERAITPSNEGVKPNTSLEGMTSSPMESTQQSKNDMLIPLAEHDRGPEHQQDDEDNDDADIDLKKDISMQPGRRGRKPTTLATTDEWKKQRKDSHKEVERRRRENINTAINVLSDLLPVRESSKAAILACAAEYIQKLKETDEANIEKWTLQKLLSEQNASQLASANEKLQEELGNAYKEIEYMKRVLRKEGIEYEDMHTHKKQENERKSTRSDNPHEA
| Oligonucleotide | fluorescence intensity |
| --- | --- |
| CTACCGAAACGGTGACAGCTGAGTTCGCTCAAATTCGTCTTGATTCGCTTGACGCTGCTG | 486 a.u. |
| CTAAAAAATCCAGCTGATGTTTGTTTCCTTTTCTTCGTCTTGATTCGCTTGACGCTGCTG | 492 a.u. |
| CTATTCATTCTGTGAAATATCACGTGGACAAATTTCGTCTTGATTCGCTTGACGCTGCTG | 16900 a.u. |
| GAATCATACTTAATACACGTTTTTTAAGATTTATAGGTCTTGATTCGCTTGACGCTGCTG | 546 a.u. |
| CTAACGTTGCACAACCACGCAATAGAAGATAATTTCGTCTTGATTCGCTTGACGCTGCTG | 553 a.u. |
| CCTAACTACTATATACACGTGTTATAGCTTCGTACAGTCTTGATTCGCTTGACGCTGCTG | 6650 a.u. |
| GAACCCAGCAGAGGTCATCACGTAGCTACAGGATAGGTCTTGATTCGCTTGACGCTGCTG | 528 a.u. |
| GAATGTATAATTGGTGGTGTAACGTGGATTAAATAGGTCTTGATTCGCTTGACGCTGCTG | 681 a.u. |
| GAATTAGGTCATGGTCACATCTTATTATATAAATAGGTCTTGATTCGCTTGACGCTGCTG | 666 a.u. |
| GAATCAATTGATTACCACATGCAACCCCATTGATAGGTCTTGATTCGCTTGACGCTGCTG | 690 a.u. |
| GAAACTTCTTGCAGACATCAGACATACTATTGTTAGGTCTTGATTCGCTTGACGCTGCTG | 522 a.u. |
| CTATAATAAAAACAGCATCAGAGCTTTCCACGTTTCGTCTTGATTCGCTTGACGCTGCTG | 458 a.u. |
| GAATGTAGATGGGACCATCAGATGTGGAACGAATAGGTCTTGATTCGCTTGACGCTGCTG | 527 a.u. |
| GAATTTTCATATATGCACATGTAAATATATGCGTAGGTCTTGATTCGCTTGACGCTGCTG | 734 a.u. |
| CCTAACTACTATATGCACGTGGTATAGCTTCGTACAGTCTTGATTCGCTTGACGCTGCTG | 5830 a.u. |
| GAAAACAAGATAGAGCACGTTGGGTCAAATTCTTAGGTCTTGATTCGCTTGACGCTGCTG | 605 a.u. |
| CTACGTTCGTGCAATCTCATGATAGAAAAAGGGTTCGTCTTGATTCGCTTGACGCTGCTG | 641 a.u. |
| CTAACACTTGAAACGCACGATTTTTTCAAGAATTTCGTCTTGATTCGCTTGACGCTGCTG | 523 a.u. |
| CTAGCGTCGTTTGCTTACGTGATTGTCATGTGCTTCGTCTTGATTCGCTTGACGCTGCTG | 1250 a.u. |
| CCTAACTACTATAATCACAAAATATAGCTTCGTACAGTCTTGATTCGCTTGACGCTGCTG | 522 a.u. |
| GAAGTTTTTAGTCTTCACGTTCATGACCGCGTGTAGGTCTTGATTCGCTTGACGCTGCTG | 755 a.u. |
| CTAATTTATCTTTTTCACATGAGATATTTTTACTTCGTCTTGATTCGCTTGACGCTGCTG | 600 a.u. |

Series 3 — technique: aptamer microarray, sandwich; molecule type: DNA with 2'F-ANA; matrix: in vitro; tested at: 200 nM; added: Cy3 exosite-II aptamer, 400 nM; direction: higher = stronger binding; oligonucleotide: GGTTGGTGTGGTTGG
Target: Prothrombin, mature alpha-thrombin (F2, Homo sapiens, UniProt P00734)
Setting: whole 15-mer aptamer, many near background
| Modification | mean fluorescence intensity [a.u.] |
| --- | --- |
| 2'F-ANA at 1 6 7 8 9 11 12 13 14 | 71.1 |
| 2'F-ANA at 1 2 4 6 8 9 10 13 15 | 59.7 |
| 2'F-ANA at 2 3 4 5 7 10 11 14 | 45.4 |
| 2'F-ANA at 1 4 6 7 8 9 13 | 80.6 |
| 2'F-ANA at 2 4 5 6 8 9 10 13 15 | 56.6 |
| 2'F-ANA at 4 5 7 10 12 14 15 | 44.6 |
| 2'F-ANA at 3 9 11 13 | 997 |
| 2'F-ANA at 6 7 8 10 11 12 13 | 173 |
| 2'F-ANA at 1 2 3 4 5 6 8 11 13 14 | 48.2 |
| 2'F-ANA at 1 2 6 8 9 10 11 12 | 63 |
| 2'F-ANA at 1 2 3 6 7 8 12 13 | 438 |
| 2'F-ANA at 3 4 5 7 8 10 12 14 15 | 57.4 |
| 2'F-ANA at 1 5 7 8 9 11 12 15 | 94 |
| 2'F-ANA at 1 2 3 4 6 8 9 10 | 62.8 |
| 2'F-ANA at 4 7 8 10 11 13 14 | 59.4 |
| 2'F-ANA at 1 2 3 4 5 6 9 | 65.2 |
| 2'F-ANA at 2 4 5 6 7 11 12 13 14 15 | 51.1 |
| 2'F-ANA at 1 2 3 5 7 9 10 11 12 13 14 | 59 |
| 2'F-ANA at 1 3 6 8 13 | 239 |
| 2'F-ANA at 9 12 14 | 212 |
| 2'F-ANA at 1 5 6 11 12 14 | 45.7 |

Series 4 — technique: RNA Bind-n-Seq; molecule type: RNA; matrix: in vitro; tested at: 365 nM; baseline: no-protein control; direction: higher = stronger binding
Target: RNA binding protein fox-1 homolog 2, RRM domain, GST-SBP tag (RBFOX2, Homo sapiens, UniProt O43251-10, residues 100-194)
Setting: natural RNA segment, single round, ends assumed
Construct (chain): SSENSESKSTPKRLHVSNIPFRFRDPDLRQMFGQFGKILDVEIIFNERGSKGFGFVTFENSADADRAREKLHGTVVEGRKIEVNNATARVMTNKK
| Oligonucleotide | RBNS enrichment (R) |
| --- | --- |
| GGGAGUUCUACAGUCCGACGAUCCACAGCACUUUUGAUAUCAAGCAAGUGGCUUCCUUUUUGAGAUAUUAAAAAAAAAAAGAAAAGGAAAAAAGUAAAUGAAGCCCAACUACCUAACCCUUUCUUAUUUGUAUUGGAAUUCUCGGGUGCCAA | 1.47 |
| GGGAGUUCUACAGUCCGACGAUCUCACCAUGAGCUAUAUUUUCUUCUGGAUCUUUGACCAAGGUGAUGUCAGCUUAUUUCUGGGGAAGGUGUUGAGCUCUUAUACAUGAAAAUGGAUAUAGGCUAUUCUCUGGUGGAAUUCUCGGGUGCCAA | 0.32 |
| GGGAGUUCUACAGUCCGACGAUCCUUUUCUAAAUGUUCAGGAAAAGCAUUGCCAGUUCAGUCUUUUCAAAAUGAGGGAGAAACAUUUGCCUGCCUUGUAAUAACAAGACUCAGUGCUUAUUUUUUAAACUGCAUGGAAUUCUCGGGUGCCAA | 0.464 |
| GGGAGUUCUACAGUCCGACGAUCGUGGCACGCCUUGUGCUGACGACCCCCACUGGGCUACAGUCACAGGAGAAUUGAGACUUGGAAAAGGCUUGGGUACAAUUAAGAAAAACCCUACAUCCCACCCUCCUCUUUGGAAUUCUCGGGUGCCAA | 0.204 |
| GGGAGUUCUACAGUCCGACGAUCCUGAGGCAGUUGACGGGGCAGUCAGAUUUUUAAAGUUUUGUACAAAGUUUUCCUUUGUAAUCACUCCCAUUUUUACUUAACAACCAACUUGUUGUGGCUCUUAUUUCUGAUGGAAUUCUCGGGUGCCAA | 0.806 |
| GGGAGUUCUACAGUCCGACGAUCAGAGAGAGAAGUACCACUGUGGCUAGAUAUAUACACACACAUAUAUAUAUGGAUGGAUGUAAUAUAUGUAGAACACACACAUAGAUGUAUAUAGGAUACACACUCAUGUAUGGAAUUCUCGGGUGCCAA | 0.556 |
| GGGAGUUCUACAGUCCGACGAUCAAAAUUUGUCCCCGAUUUUACCUUUGUCUUUCUGUGUACUUUUCAAAGAGUCCUAAGGAGUUAAAUCUUCCAGGUAUUUUCCACUUAGUAUUGCAGCCAAAGAAUAUUUAUGGAAUUCUCGGGUGCCAA | 0.495 |
| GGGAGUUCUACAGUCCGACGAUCCAGGUCCCCACCUGACCACCUGUGAACUGGCCAUCAUCAGGCUCCCAGUUUCUCCUGUACAAAUCCCUGGCUCCUCGUGGGUCCUCGGGACCCGUACCAUACCUGCAAUGUGGAAUUCUCGGGUGCCAA | 0.415 |
| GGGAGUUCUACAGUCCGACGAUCGCAAGUGCCCUUAGGAUGCCGCAUGGGAAAAAUCGGUUAUCAUAAUUUCAAAGUAUAAAUAUAUUUAUUAAGUAGCGCUGCGGCUAAGAAGGAAGAGUGAGGGGUCUGUCUGGAAUUCUCGGGUGCCAA | 5.1 |
| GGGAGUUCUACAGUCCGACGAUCCCAUAAAGCUUUUGUUAUAUAUUAAAUGUAAACUGAAAGGAAUGUAAACAUAUGUAUUGUUAAUUAUAAAUAUCGAUAAGUAAUAGCAUAAUAGAUGAAGAGGUCUUAUUUGGAAUUCUCGGGUGCCAA | 0.784 |
| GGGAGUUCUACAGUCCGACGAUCGCCUUAACCGAAGGCAACCUCUGCUCCAGAUGGAUGGUACCAGUAGCUUCUUAAUUCCAAUACUAAUUUGCUUUGCUGACCAAAUACCUGCCUGGUACCAGAAGACAGGGUGGAAUUCUCGGGUGCCAA | 0.302 |
| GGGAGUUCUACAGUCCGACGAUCGGGAUGGGGGUGCCUUGCUCCAGCGGGCUGCAGAUCCCAGCACUGGCGUGACUGACGGCUGAGGCCUGCCUCUCCUUCCCAAGCCCCCUUCCUUCAUCCUUGGGGGUCUCUGGAAUUCUCGGGUGCCAA | 0.762 |

Excerpt of the above (series 2):
| Oligonucleotide | fluorescence intensity |
| --- | --- |
| GAATCAATTGATTACCACATGCAACCCCATTGATAGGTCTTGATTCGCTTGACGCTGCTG | 690 a.u. |
| GAAACTTCTTGCAGACATCAGACATACTATTGTTAGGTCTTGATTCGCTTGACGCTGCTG | 522 a.u. |
| CTATAATAAAAACAGCATCAGAGCTTTCCACGTTTCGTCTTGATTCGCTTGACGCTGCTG | 458 a.u. |
| GAATGTAGATGGGACCATCAGATGTGGAACGAATAGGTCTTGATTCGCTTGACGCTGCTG | 527 a.u. |
